Results from different studies.
Each numbered part is a random draw from the data of one study; scales do not carry over between parts.

Block 1
Target: RNA binding protein fox-1 homolog 2, RRM domain, GST-SBP tag (RBFOX2, Homo sapiens, UniProt O43251-10, residues 100-194)
Technique: RNA Bind-n-Seq
Form: RNA
Medium: in vitro
Concentration: 365 nM
Setting: natural RNA segment, single round, ends assumed
Baseline: no-protein control
Direction: higher = stronger binding
Shared flanks, not repeated: GGGAGUUCUACAGUCCGACGAUC … UGGAAUUCUCGGGUGCCAA
Construct (chain): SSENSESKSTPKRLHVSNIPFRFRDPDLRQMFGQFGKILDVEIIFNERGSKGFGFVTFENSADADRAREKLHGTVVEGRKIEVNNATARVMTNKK
Oligonucleotide | RBNS enrichment (R)
AAAUAGCGUUCUGCUUGGGAUGGUGGCUGGUUCUAUGCCUACGCUCUCCGGUGACACCUAUAAGCCUCCAUUGAGCUCAGAGAGGAUGCCUUAGGCUGGAUCCUGCUCCU | 0.538
UGAAGCAGGUCUUCCAGACCCUGCGAUCCUUUCUGUAGCAGUGAUUCUAAAGUGGCGUUUGCUGUGUGCUUGAGAGUAACACUGCACGCUGCAGGGGCUGUUGCAGCAGU | 0.728
GCUGGUAGCCUUUUGGGAAUUGGUUUGGUUUAUUGUAUAUGUACCAUUUUGCUACCAGUUUCAUUGAAUUGAUUUAAAAAUAAAUAAAUAAUAAAAUUAUUUCUGAUGAU | 11.2
CCUUGACUUAAUAUUAAAUCCUAAGGAUUUUAUGUAAGGUUUUUUUGCAACCUAUUUAAUUUUUUUUAAAUGCCUAACUUCUGAGGUGCAUAAGCCCGUGGUUUGUGUAC | 0.763
GGAAUGGAUCACGUAGACAUGUAACCCAGCAGCAGUUUGCUUCUGUUGUCCACUGAUUAAUCAGCCUAUGUGCCUGACACUGGUCUUGCAGUACAACUGGAAGCCAAAAC | 0.212
AAAAGAUUGAUCAUCCAAAUGGCAAAUUUCUUAGAGUCCAUAACUGAUUUGAUAGAUUUUUCUUUUUAAAUAAAACUUCACAGCCUGCACAGUUGUUACGCAUACUACAU | 2.02
GUUAAUUUUCUUUAGAUGUGUAAAACUGUUCAUUGUAGUGUAAAUGUCAGGGUCUGUUCUAGUCUAUGUCAAGCAAUAACUGUCAGUGCAUAAAUCGAUUAGUCUGCUGU | 0.387
CUGCUCACAGACAUGAGGAAGCAGGCUGUAGAUUUAAGGGCACUCAAGGGGAAAACAAAUGUAGUUUCCACAGUGUGAGGAUAAAUGUAGAAUCGUGGUAAUAUUGGCUG | 1.77
UUCGAUACAUAAUUAUGGUUUCUGUAUAAGAAGGUAUUGGUUAAGUAUCACGUUUUCAGCCAUGUUGUGUAAGAGACCUGCUUUCAAGUGUGGUUGUAAAAGCAAGCCCA | 0.279
UCCUGUACCAGCACCUCCGUUUUCAGUCAGUGUUGUCCAGCAACGGUACCGUUUACACAGUCACCUCAGACACACCAUUUCACCUCCCUUGCCAAGCUGUUAGCCUUAGA | 0.615
CAUAAUUGCAGGAAUUAUUUUUUGUUUUUAAAACUGGAUUUGGGGCACAUUCAUUCACCCCAACACUUCUAUCUAAAGGCCAAGGUUCUAGGGCUGCUAUGGUCACUAAC | 0.319
AAUGUCCCUGCGAACCCACAAUCUCUGCCAGCAGAACUGGUUUUGUUCUGAAUAGUACAGAUUGAUGUGAACACAAAGCAUUUUGUGUAAGGAGAACCCCUUUCUUUUAA | 0.28

Block 2
Target: Histone acetyltransferase KAT6A, both winged helices, GST fusion (KAT6A, Homo sapiens, UniProt Q92794, residues 1-181)
Technique: protein binding microarray
Form: double-stranded DNA, one strand shown
Medium: in vitro
Concentration: not given
Setting: 8-mer, flanks averaged, mean of 2 arrays, mostly near background
Baseline: not given
Direction: higher = stronger binding
Target sequence (chain): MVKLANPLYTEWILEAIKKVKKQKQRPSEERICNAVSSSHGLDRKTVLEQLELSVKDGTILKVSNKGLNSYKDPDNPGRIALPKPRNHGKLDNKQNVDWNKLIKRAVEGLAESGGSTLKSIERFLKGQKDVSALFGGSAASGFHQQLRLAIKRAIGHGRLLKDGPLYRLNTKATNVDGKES
Oligonucleotide | E-score
GGAGTTAC | -0.0374
AACCGAGG | -0.0993
ATTGCGAC | 0.201
ATCGATAG | -0.0527
TCGGCTCA | 0.119
GGTGAGTA | -0.175
AGACGTGC | 0.0535
CAATCGTC | -0.0308
ATCTGATA | -0.0725
CCACCGAA | -0.12
GAGACATA | -0.139
CCCATGAC | -0.113
ATGGGCGG | 0.0659
GTGAGTGA | -0.0876
ACGTTCTC | -0.019
AACGGAAC | 0.191
ACCAGCCC | -0.1
AGCCCATG | -0.141
GGCTGGGA | -0.09
GCCTACGC | 0.135

Block 3
Target: Ras GTPase-activating protein-binding protein 1, C-terminal RGG region (G3BP1, Homo sapiens, UniProt Q13283)
Chain of UniProt Q13283 (whole entry, looked up): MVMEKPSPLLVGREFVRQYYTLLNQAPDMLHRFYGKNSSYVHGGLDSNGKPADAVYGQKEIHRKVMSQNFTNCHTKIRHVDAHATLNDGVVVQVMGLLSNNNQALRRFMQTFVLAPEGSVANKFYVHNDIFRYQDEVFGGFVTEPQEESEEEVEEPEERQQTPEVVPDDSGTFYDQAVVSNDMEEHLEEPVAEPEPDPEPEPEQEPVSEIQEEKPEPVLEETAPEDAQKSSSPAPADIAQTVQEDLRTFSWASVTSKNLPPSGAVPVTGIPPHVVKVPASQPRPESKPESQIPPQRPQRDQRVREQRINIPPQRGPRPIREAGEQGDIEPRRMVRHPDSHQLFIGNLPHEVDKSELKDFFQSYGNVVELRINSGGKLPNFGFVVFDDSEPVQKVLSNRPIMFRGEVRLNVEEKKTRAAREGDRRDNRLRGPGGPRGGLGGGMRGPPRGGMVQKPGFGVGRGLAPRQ
Technique: RNA Bind-n-Seq
Form: RNA
Medium: in vitro
Concentration: 1 µM
Setting: whole 134-nt RNA, ends assumed
Added: 150 mM KCl
Baseline: input library
Direction: higher = stronger binding
Shared flanks, not repeated: GGGAGUUCUACAGUCCGACGAUC … UGGAAUUCUCGGGUGUCAAGG
Oligonucleotide | log2 enrichment
CAAGUCCUGUGCUACACAUCGUAUGUACCGAAUCGGGUUUGGGUUUUUGGGUGGGAAAGUAUUAUGUUACGCCGUUCGGAUCUGCACUUC | 1.24
CCUCAAGUCCUGUGCUACACAUCGUAUGUACCGAAUCGGGCGGGCGGGCGGGGAAAGUAUUAUGUUACGCCGUUCGGAUCUGCACUUCCA | 4.22
CUCAAGUCCUGUGCUACACAUCGUAUGUACCGAAUCGGUUUGGUGGAAAAAGGAAAGUAUUAUGUUACGCCGUUCGGAUCUGCACUUCCA | -1.13
UCAAGUCCUGUGCUACACAUCGUAUGUACCGAAUCGGAAAAAGGAGGUUUUUGGAAAGUAUUAUGUUACGCCGUUCGGAUCUGCACUUCC | -1.07
AAGUCCUGUGCUACACAUCGUAUGUACCGAAUCGGUUUUUGGAAAGGUUUUUUUGGAAAGUAUUAUGUUACGCCGUUCGGAUCUGCACUU | -2.16
UGGGAGGUGGAUUCUGUUUAUUUUUUUAGCUCAUUUCCAGGGGUGGGAAUUUUUUUUUAAUAUGUGUCAUGAAUAAAGUUGUUUUUGAAA | 3.18
CCUCAAGUCCUGUGCUACACAUCGUAUGUACCGAAUCGGAGGUUUGGUUUGGAAAGUAUUAUGUUACGCCGUUCGGAUCUGCACUUCCAG | -0.885
GCAGGAAGUAAAAACAAAUGGAAAUGCUUCGGAUAGUGGCAGGGGUGGGGGUUGCUAAGGAAAGGGUGGUAUGGGAGUGGGUAAAGAGUU | 2.2
CAAGUCCUGUGCUACACAUCGUAUGUACCGAAUCGGUUUGGUUUUUGGAAAAAGGAAAGUAUUAUGUUACGCCGUUCGGAUCUGCACUUC | -1.57
UUCAACAACUAGUACUGCUUCAAAUUAUCCAGAUGUGUUAACAAGGCCUUCUCUUCAUCGGAGCCAUCUGAAUUUUUCCAUGUUGGAAUC | 0.0782
GUCCUGUGCUACACAUCGUAUGUACCGAAUCGGGUUUUUGGGUUUUUUUGGGAAAGGGAAAGUAUUAUGUUACGCCGUUCGGAUCUGCAC | -0.492
CCUCAAGUCCUGUGCUACACAUCGUAUGUACCGAAUCGGCCGGCCGGCCGGGAAAGUAUUAUGUUACGCCGUUCGGAUCUGCACUUCCAG | -1.32
CACAGACAACACGCACCCACACAGACACAGAGGGAAGGGGUUGGGAUGGGGACAGGGUGAACAGCAGGGCGGGGUAGGACCCCAGCCCCU | -0.517
UGGCCCUGGUGGCAUGCGGGGAGGAAGAGGUGGCCUCAUGGAUCGUGGUGGUCCCGGUGGAAUGUUCAGAGGUGGCCGUGGUGGAGACAC | 2.96

Block 4
Target: Interferon regulatory factor 7, full length, phosphomimetic (IRF7, Homo sapiens, UniProt Q92985, residues 1-503, S101K/S471D/S472D/S475D/S476D/S477D/S483D/S484D/S487D)
Chain of UniProt Q92985 (whole entry, unmodified, looked up): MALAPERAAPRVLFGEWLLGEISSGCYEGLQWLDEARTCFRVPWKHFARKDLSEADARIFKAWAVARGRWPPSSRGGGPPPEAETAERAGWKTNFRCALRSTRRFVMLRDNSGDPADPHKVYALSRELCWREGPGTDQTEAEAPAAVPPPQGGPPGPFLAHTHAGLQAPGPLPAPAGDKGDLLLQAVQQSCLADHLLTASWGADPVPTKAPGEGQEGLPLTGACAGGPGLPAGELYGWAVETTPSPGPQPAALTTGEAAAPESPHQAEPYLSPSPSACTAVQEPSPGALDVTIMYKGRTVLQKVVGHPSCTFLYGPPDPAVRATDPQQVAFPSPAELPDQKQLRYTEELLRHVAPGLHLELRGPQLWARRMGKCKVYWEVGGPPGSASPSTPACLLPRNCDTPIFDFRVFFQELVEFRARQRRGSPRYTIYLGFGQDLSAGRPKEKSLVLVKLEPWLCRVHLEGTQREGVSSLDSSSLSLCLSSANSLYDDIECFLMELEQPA
Technique: protein-binding microarray
Form: double-stranded DNA, one strand shown
Medium: in vitro
Concentration: 250 nM
Setting: 60-bp whole probe
Added: salmon DNA 0.4 mg/ml
Baseline: random background probes
Direction: higher = stronger binding
Shared flanks, not repeated: GCCTAGCAC … GTCTTGATTCGCTTGACGCTGCTG
Oligonucleotide | log fluorescence
AACACTCTTCTTTTGCTAATGTGCTAG | 0.944 z-score
TTAGGTTTCGGTTCCGGTTTGTGCTAG | 13.1 z-score
TCATTTATGCTTTCTTTAACTGTGCTA | 1.27 z-score
TCAACTCTTCTTTTTTTACTGTGCTAG | 0.489 z-score
GACGGTTCCGGTTTCGGGGCGTGCTAG | 5.86 z-score
GACGGTTTCCTTTTACTGACGTGCTAG | 8.79 z-score
TTAGATTTCATTATCGATTAGTGCTAG | 0.91 z-score
TTCTATCTCTGTTTTTGCTTGTGCTAG | 0.635 z-score
TTAGATCTCGGACTGGGTTAGTGCTAG | 0.105 z-score
TCACGGGCTTCTTTTTCTACTGTGCTA | -0.392 z-score
CTAGATCTCAGTATCGATTAGTGCTAG | 1.21 z-score
TTAGGACTAGGGTATCGGTTAGTGCTA | 1.21 z-score
TCAATGATCTTCCTTCATACTGTGCTA | 0.0722 z-score
GAGGAACTGGGGACTGGAGACGTGCTA | -0.588 z-score
GACGGTATCGGTTTCGGGATGTGCTAG | 7.85 z-score
GACGGACTGGTTATCCTGACGTGCTAG | -0.827 z-score
GACGGTACCGGGACTGGGGACGTGCTA | -0.558 z-score
TTAGATTTCGACTATCGGTTAGTGCTA | 0.748 z-score
CCGTAGCTTCCTTTCGCCGCGTGCTAG | -0.0786 z-score
GACGGTATCCTACTGCTGACGTGCTAG | -0.237 z-score
AGCAGTTTCTCAACCACTTTGTGCTAG | 0.387 z-score
GAAGATATCGGGTATCGAGACGTGCTA | -0.0403 z-score
CTGGTGCTCATCTGTCATGTTGTGCTA | -0.523 z-score
TTAGGACTGCGGACTGGGTTAGTGCTA | -0.748 z-score
TTTGTCATCTATAATGGATATGTGCTA | -0.0921 z-score

Repeated from above (block 2):
Oligonucleotide | E-score
AACCGAGG | -0.0993
GCCTACGC | 0.135
CCCATGAC | -0.113
TCGGCTCA | 0.119
GGTGAGTA | -0.175
GAGACATA | -0.139
AGACGTGC | 0.0535
AACGGAAC | 0.191
